Published values of several laboratories.
“And” joins repeats or separate records; there may be more than shown. ± marks the error that the study gave.
rep main protease: Replicase polyprotein 1ab, main protease (rep, Severe acute respiratory syndrome coronavirus 2, UniProt P0DTD1)
rep methyltransferase: Replicase polyprotein 1ab, methyltransferase (rep, Severe acute respiratory syndrome coronavirus 2, UniProt P0DTD1)
rep papain-like protease: Replicase polyprotein 1ab, papain-like protease (rep, Severe acute respiratory syndrome coronavirus 2, UniProt P0DTD1)
rep nsp13 helicase: Replicase polyprotein 1ab, nsp13 helicase (rep, Severe acute respiratory syndrome coronavirus 2, UniProt P0DTD1)

Compound	target	assay	system	setting	IC50
NC(=O)CCC1CCCN(C(=O)c2c[nH]n3c2nc(=O)c2ccccc23)C1 (centres unmarked)	rep main protease	enzyme activity, inhibitor	–	–	21300 nM
COC(=O)[C@H](C)NC(=O)c1ccccc1[Se][Se]c1ccccc1C(=O)N[C@@H](C)C(=O)OC	rep main protease	enzyme activity, inhibitor	–	–	1060 nM
COC(=O)c1ccc2c(c1)CCC1C2=NN(c2ccc(C#N)c(Cl)c2)C1C1CCCC1 (centres unmarked)	rep methyltransferase	enzyme activity, inhibitor	–	–	> 100000 nM
Cc1cc(C(=O)COn2nnc3ccc(S(C)(=O)=O)cc32)c(C)n1C	rep main protease	enzyme activity, inhibitor, FRET	–	–	5020 nM
NC[C@@H](CC[C@H](N)C(=O)O)C[C@H]1O[C@@H](n2cnc3c(N)ncnc32)[C@H](O)[C@@H]1O	Replicase polyprotein 1ab, nsp14 (rep, Severe acute respiratory syndrome coronavirus 2, UniProt P0DTD1)	nsp14 methyltransferase activity, inhibitor, radiometric SPA	–	20 min, added: 3H-SAM 250 nM, RNA 50 nM	190 ± 40 nM
Nc1ncnc2c1ncn2[C@@H]1O[C@H](CSCc2cc(C(=O)O)cc(-c3ccc(O)cc3)c2)[C@@H](O)[C@H]1O	Replicase polyprotein 1ab, nsp16 with nsp10 (rep, Severe acute respiratory syndrome coronavirus 2, UniProt P0DTD1)	methyltransferase activity, inhibitor	–	30 min, 30 °C, added: SAM 10 µM	0.8 ± 0.05 nM
Cc1ccc(OCCN(C)C)cc1C(=O)N[C@H](C)c1cc(-c2cnn(C)c2)cc(-c2cnn(C)c2)c1	rep papain-like protease	enzyme activity, inhibitor, FRET	–	–	151 nM
CCC(C(=O)Nc1ccc(F)cc1)n1c(SCc2ccc(F)cc2)nc2ncccc21 (centres unmarked)	rep papain-like protease	enzyme activity, inhibitor	–	–	> 20000 nM
O=C(CCN(Cc1ccco1)C(=O)c1csc(Nc2ccccc2)n1)NCc1cccc(C(F)(F)F)c1	rep main protease	enzyme activity, inhibitor, FRET	–	–	140000 nM
CC(C)(C)c1ccc(N(C(=O)C(F)Cl)C(C(=O)NCCc2cccnc2)c2cccnc2)cc1 (centres unmarked)	rep main protease	enzyme activity, inhibitor	–	–	730 nM
CN(C)CCCCNC(=O)C[C@H](Cc1ccc(F)cc1)NC(=O)[C@@H](Cc1ccc(Cl)cc1Cl)NC(=O)CCc1ccccc1C#N	rep main protease	enzyme activity, inhibitor, fluorescence	–	–	70 nM
O=C(NC1CCC(F)(F)CC1)C(c1cncnc1)N(C(=O)C(F)Cl)c1ccc(-c2cncs2)cc1 (centres unmarked)	rep main protease	enzyme activity, inhibitor	–	–	61 nM
O=c1cc(-c2ccc(O)cc2)oc2c(C3OC(CO)C(O)C(O)C3O)c(O)c(C3OC(CO)C(O)C(O)C3O)c(O)c12 (centres unmarked)	rep main protease	enzyme activity, inhibitor	–	–	1430 nM
COc1cc([C@H]2OC[C@H]3[C@@H]2CO[C@@H]3c2ccc3c(c2)OCO3)ccc1O	rep main protease	enzyme activity, inhibitor, FRET	–	–	16300 ± 830 nM
COc1ccc(-c2noc(CNC(=O)C3C(C)=C3c3ccccc3)n2)cc1 (centres unmarked)	rep main protease	enzyme activity, inhibitor, FRET	–	–	39300 nM
CCCOc1cc(Cl)cc(-c2cc(-c3ccccc3C#N)cn(-c3cncnc3)c2=O)c1	rep main protease	enzyme activity, inhibitor	SARS-CoV-2	Mpro, compound fluorescence interfered	1000 to 10000 nM
CCC(C(=O)Nn1cccc1)n1c(SCc2ccc(F)cc2)nc2ncccc21 (centres unmarked)	rep papain-like protease	enzyme activity, inhibitor	–	–	7090 nM
C#CCCCNC(=O)CC(Cc1ccc(F)cc1)NC(=O)C(Cc1ccc(Cl)cc1Cl)NC(=O)C(N)Cc1ccccc1C#N (centres unmarked)	rep main protease	enzyme activity, inhibitor, fluorescence	–	–	100 nM
OC[C@H]1O[C@@H](Oc2cc3c(O)cc(O)cc3[o+]c2-c2ccc(O)c(O)c2)[C@H](O)[C@@H](O)[C@@H]1O	rep methyltransferase	enzyme activity, inhibitor	–	–	15600 nM
Cc1oc2nc1C(=O)N[C@](C)(C(=O)OC(C)C)c1nc(c(C)o1)C(=O)N[C@](C)(C(=O)OC(C)C)c1nc(c(C)o1)C(=O)N[C@]2(C)C(=O)OC(C)C	rep main protease	enzyme activity, inhibitor	–	–	2600 nM and 2580 nM
CC(=O)NS(=O)(=O)c1ccc(C2=NN(c3ccc(C#N)c(Cl)c3)C(C)C2)cc1 (centres unmarked)	rep methyltransferase	enzyme activity, inhibitor	–	–	2000 nM
CC(=O)N[C@@H](Cc1ccc(O)cc1)C(=O)N[C@@H](CC(=O)O)C(=O)N[C@@H](C)C(=O)N[C@@H](Cc1ccccc1)C(=O)N[C@@H](Cc1ccc(O)cc1)C(=O)N[C@@H](C)C(=O)N[C@@H](Cc1ccc(O)cc1)C(=O)N[C@H](C(=O)N[C@H](C(=O)N[C@@H](Cc1ccccc1)C(=O)N[C@@H](Cc1c[nH]cn1)C(=O)N[C@H](C(=O)N[C@@H](C)C(=O)N[C@H](C(N)=O)[C@@H](C)O)C(C)C)[C@@H](C)O)C(C)C	rep main protease	enzyme activity, inhibitor	–	–	> 16000 nM
Cc1ccc(NC(=S)N/N=C/c2ccc(O)cc2)cc1	rep main protease	enzyme activity, inhibitor, FRET	–	–	3250 nM
CN(C)S(=O)(=O)c1ccc2nnn(OCc3cccc4ccccc34)c2c1	rep main protease	enzyme activity, inhibitor	–	–	> 100000 nM

Compound	target	assay	system	setting	IC50
O=c1c(O[C@@H]2O[C@H](CO)[C@@H](O)[C@H](O)[C@H]2O)c(-c2ccc(O)c(O)c2)oc2cc(O)cc(O)c12	rep nsp13 helicase	ATPase activity	–	no nucleic acid	> 30000 nM
CCOC(=O)ONC(=O)/C=C\c1ccc(Cl)cc1Cl	rep main protease	enzyme activity, inhibitor, FRET	–	–	420 nM
O=c1cc(-c2ccc(OC3O[C@H](CO)[C@@H](O)[C@H](O)[C@H]3O)c(O)c2)oc2cc(O)cc(O)c12 (some centres unmarked)	rep nsp13 helicase	ATPase activity	–	no nucleic acid	> 30000 nM
CC1(C)C2CCC(Cn3[se]c4ccccc4c3=O)C1C2 (centres unmarked)	rep main protease	enzyme activity, inhibitor	–	–	519 nM
CCc1ccccc1NC(=S)N/N=C/c1ccccc1O	rep main protease	enzyme activity, inhibitor, FRET	–	–	33400 nM
CNC(=O)C[C@H](Cc1ccc(F)cc1)NC(=O)[C@@H](Cc1ccc(Cl)cc1Cl)NC(=O)[C@@H](Cc1ccccc1C#N)NC(C)=O	rep main protease	enzyme activity, inhibitor, fluorescence	–	–	> 50000 nM
O=C(c1cccc(-n2cccc2)c1)N1CCCN(S(=O)(=O)c2ccc(F)cc2)CC1	rep main protease	enzyme activity, inhibitor, FRET	–	–	21000 nM
C#CCNC(=O)C[C@H](Cc1ccc(F)cc1)NC(=O)[C@@H](Cc1ccc(Cl)cc1Cl)NC(=O)[C@H](N)Cc1ccccc1C#N	rep main protease	enzyme activity, inhibitor, fluorescence	–	–	100 nM
Nc1nnc(SC2CC(=O)N(c3cccc4ccccc34)C2=O)s1 (centres unmarked)	rep main protease	enzyme activity, inhibitor	–	10 min preincubation, 30 nM enzyme, added: 20 µM substrate	1890 ± 220 nM
CCOC(=O)/C=C/C(=O)NNC(=O)CCc1ccccc1C(=O)N[C@H](C)c1cccc(-c2ccsc2)c1	rep papain-like protease	enzyme activity, inhibitor, FRET	–	–	120 nM
CN(C)CCCCNC(=O)C[C@H](Cc1ccc(F)cc1)NC(=O)[C@@H](Cc1ccc(Cl)cc1Cl)NC(=O)[C@H](N)Cc1ccccc1C#N	rep main protease	enzyme activity, inhibitor, fluorescence	–	–	10 nM
CC(c1ccccc1Cl)N(C)Cc1cc(O)ccc1Cl (centres unmarked)	rep papain-like protease	deubiquitinase activity, inhibitor	–	added: Ub-AMC 2.5 µM	6580 ± 1680 nM
O=S(=O)(/N=c1/ssc(-c2ccccc2)c1Cl)c1ccccc1	rep main protease	enzyme activity, inhibitor	–	180 min	11900 ± 1800 nM
O=C(NCCc1cccc(F)c1)[C@@H](c1cncnc1)N(C(=O)[C@@H](F)Cl)c1ccc(S(F)(F)(F)(F)F)cc1	rep main protease	enzyme activity, inhibitor	–	–	10600 nM
O=C(/C=C/c1ccc(O)cc1)O[C@@H]1Cc2c(O)cc(O)cc2O[C@@H]1c1ccc(O)c(O)c1	rep main protease	enzyme activity, inhibitor, FRET	–	–	211000 nM
O=c1c2cccc([N+](=O)[O-])c2[se]n1-c1ccccc1	rep main protease	enzyme activity, inhibitor, FRET	–	–	740 nM
COc1ccc(-c2cc(=O)c3c(O)cc(O)c(-c4cc(-c5cc(=O)c6c(O)cc(OC)cc6o5)ccc4OC)c3o2)cc1	rep papain-like protease	enzyme activity, inhibitor, fluorescence	–	pH 8	34800 to 36400 nM and 34800 nM
CCCCCCCCCCCCCc1cc(O)cc(O)c1	rep main protease	enzyme activity, inhibitor	–	with preincubation	> 100000 nM
COc1ccc(-c2oc3cc(O)cc(O)c3c(=O)c2O)c(OC)c1O	rep main protease	inhibitor	–	–	840 ± 60 nM
O=C(Nc1ccccc1)c1ccccc1[Se][Se]c1ccccc1C(=O)Nc1ccccc1	rep main protease	enzyme activity, inhibitor	–	pH 7.3	65 nM
C=CC(=O)NC(CC(=C)C)C(=O)N1CC(C(=O)NC(C(=O)NC)C(C)CC)C(c2cccc(C(F)(F)F)c2)C1 (centres unmarked)	rep main protease	–	–	–	61600 nM
COC(=O)C[C@H](NC(=O)c1ccccc1[Se][Se]c1ccccc1C(=O)N[C@@H](CC(=O)OC)C(=O)OC)C(=O)OC	rep main protease	enzyme activity, inhibitor	–	–	1920 nM
CN(C)c1ccc(N(Cc2cc(Cl)cs2)C(=O)Cc2cncc3ccccc23)cc1	rep main protease	enzyme activity, inhibitor	Caco-2	28 h	70 ± 20 nM
